Measurements of several laboratories.
Lines come from different studies, so protocols differ. ± marks the error that the study gave.
ACTA1: ACTA1, pyrene label (Oryctolagus cuniculus, UniProt P68135)
T1: Psmc3ip/Mnd1 R64A/Y70A/Y71A (Mus musculus); chain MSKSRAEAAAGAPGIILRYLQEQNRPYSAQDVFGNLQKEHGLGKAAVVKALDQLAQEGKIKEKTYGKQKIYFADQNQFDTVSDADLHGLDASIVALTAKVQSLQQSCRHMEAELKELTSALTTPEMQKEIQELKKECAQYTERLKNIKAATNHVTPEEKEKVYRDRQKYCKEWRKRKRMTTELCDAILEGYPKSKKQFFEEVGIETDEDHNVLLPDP; chain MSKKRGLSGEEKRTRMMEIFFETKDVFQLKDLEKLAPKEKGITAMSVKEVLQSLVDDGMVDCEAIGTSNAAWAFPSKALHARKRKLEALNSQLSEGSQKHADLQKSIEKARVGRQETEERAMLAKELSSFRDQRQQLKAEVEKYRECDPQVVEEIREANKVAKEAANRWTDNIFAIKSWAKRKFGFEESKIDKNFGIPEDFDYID
B1: Fmnl3 555-954 (Mus musculus, UniProt Q6ZPF4); chain GLSAIRIKKPIKTKFRLPVFNWTALKPNQINGTVFSELDDEKILEDLDLDRFEELFKTKAQGPALDLICSKNKTAQKAASKVTLLEANRAKNLAITLRKAGRSAEEICRAIHTFDLQTLPVDFVECLMRFLPTEAEVKLLRQYERERQPLEELAAEDRFMLLFSKVERLTQRMAGMAFLGNFQDNLQMLTPQLNAIIAASASVKSSQKLKQMLEIILALGNYMNSSKRGAVYGFKLQSLDLLLDTKSTDRKMTLLHFIALTVKEKYPELANFWQELHFVEKAAAVSLENVLLDVKELGRGMELIRRECSIHDNSVLRNFLSTNEGKLDKLQRDAKTAEEAYNAVVRYFGESPKTTPPSVFFPVFVRFIRSYKEAEQENEARKKQEEVMREKQLAQEAKKL
B2: FBN1 179-489 (Homo sapiens, UniProt P35555); chain RDYRTGPCFTVISNQMCQGQLSGIVCTKTLCCATVGRAWGHPCEMCPAQPHPCRRGFIPNIRTGACQDVDECQAIPGLCQGGNCINTVGSFECKCPAGHKLNEVSQKCEDIDECSTIPGICEGGECTNTVSSYFCKCPPGFYTSPDGTRCIDVRPGYCYTALTNGRCSNQLPQSITKMQCCCDAGRCWSPGVTVAPEMCPIRATEDFNKLCSVPMVIPGRPEYPPPPLGPIPPVLPVPPGFPPGPQIPVPRPPVEYLYPSREPPRVLPVNVTDYCQLVRYLCQNGRCIPTPGSYRCECNKGFQLDLRGECI
B3: Nde1 (Mus musculus, UniProt Q9CZA6); phosphorylated by Cdk1; sequence looked up; chain MEDSGKTFESEEEETNYWRDLAMTYKQRAENTQEELREFQEGSREYEAELEAQLQQIETRNRDLLSENNRLRMELESVKEKFEMQHSEGYRQISALEDDLAQTKAIKDQLQKYIRELEQANDDLERAKRATIMSLEDFEQRLNQAIERNAFLESELDEKENLLESVQRLKDEARDLRQELAVQQKQDKPRTPMPGSGQAKRTDMAVQATGSVPSTPVAHRGPSSGLNTPGMFRRGLDSSTSGTPLTPAARISALNIVGDLLRKVGALESKLASCRNFMYDQSPSRTSGPASGRGTKNRDGVDRRPGSTSVGDKGSGKRLEFGKPASEPASPALPSAQGVVKLLL
B4: Fmnl3 555-954 M742A (Mus musculus, UniProt Q6ZPF4); chain GLSAIRIKKPIKTKFRLPVFNWTALKPNQINGTVFSELDDEKILEDLDLDRFEELFKTKAQGPALDLICSKNKTAQKAASKVTLLEANRAKNLAITLRKAGRSAEEICRAIHTFDLQTLPVDFVECLMRFLPTEAEVKLLRQYERERQPLEELAAEDRFMLLFSKVERLTQRMAGMAFLGNFQDNLQALTPQLNAIIAASASVKSSQKLKQMLEIILALGNYMNSSKRGAVYGFKLQSLDLLLDTKSTDRKMTLLHFIALTVKEKYPELANFWQELHFVEKAAAVSLENVLLDVKELGRGMELIRRECSIHDNSVLRNFLSTNEGKLDKLQRDAKTAEEAYNAVVRYFGESPKTTPPSVFFPVFVRFIRSYKEAEQENEARKKQEEVMREKQLAQEAKKL
B5: Dync1i1 (Mus musculus, UniProt O88485); chain MSDKSDLKAELERKKQRLAQIREEKKRKEEERKKKEADMQQKKEPVQDDSDLDRKRRETEALLQSIGISPEPPLVPTPMSPSSKSVSTPSDAGSQDSGDLGPLTRTLQWDTDPSVLQLQSDSELGRRLHKLGVSKVTQVDFLPREVVSYSKETQTPLATHQSEEDEEDEEMVEPKIGHDSELENQEKKQETKEAPPRELTEEEKQQILHSEEFLIFFDRTIRVIERALAEDSDIFFDYSGRELEEKDGDVQAGANLSFNRQFYDEHWSKHRVVTCMDWSLQYPELMVASYSNNEDAPHEPDGVALVWNMKFKKTTPEYVFHCQSSVMSVCFARFHPNLVVGGTYSGQIVLWDNRSHRRTPVQRTPLSAAAHTHPVYCVNVVGTQNAHNLITVSTDGKMCSWSLDMLSTPQESMELVYNKSKPVAVTGMAFPTGDVNNFVVGSEEGTVYTACRHGSKAGIGEVFEGHQGPVTGINCHMAVGPIDFSHLFVTSSFDWTVKLWTTKHNKPLYSFEDNADYVYDVMWSPVHPALFACVDGMGRLDLWNLNSDTEVPTASVAIEGASALNRVRWAQGGKEVAVGDSEGRIWIYDVGELAVPHNDEWTRFARTLVEIRANRADSEEEGAVELAA
B6: HNRNPF 192-415 (Homo sapiens, UniProt P52597); chain RSYSDPPLKFMSVQRPGPYDRPGTARRYIGIVKQAGLERMRPGAYSTGYGGYEEYSGLSDGYGFTTDLFGRDLSYCLSGMYDHRYGDSEFTVQSTTGHCVHMRGLPYKATENDIYNFFSPLNPVRVHIEIGPDGRVTGEADVEFATHEEAVAAMSKDRANMQHRYIELFLNSTTGASNGAYSSQVMQGMGVSAAQATYSGLESQSVSGCYGAGYSGQNSMGGYD
B7: Fmnl3 555-954 R782A (Mus musculus, UniProt Q6ZPF4); chain GLSAIRIKKPIKTKFRLPVFNWTALKPNQINGTVFSELDDEKILEDLDLDRFEELFKTKAQGPALDLICSKNKTAQKAASKVTLLEANRAKNLAITLRKAGRSAEEICRAIHTFDLQTLPVDFVECLMRFLPTEAEVKLLRQYERERQPLEELAAEDRFMLLFSKVERLTQRMAGMAFLGNFQDNLQMLTPQLNAIIAASASVKSSQKLKQMLEIILALGNYMNSSKAGAVYGFKLQSLDLLLDTKSTDRKMTLLHFIALTVKEKYPELANFWQELHFVEKAAAVSLENVLLDVKELGRGMELIRRECSIHDNSVLRNFLSTNEGKLDKLQRDAKTAEEAYNAVVRYFGESPKTTPPSVFFPVFVRFIRSYKEAEQENEARKKQEEVMREKQLAQEAKKL
B8: Gp1.2 residues 2-end 2-85 (bacteriophage T7, UniProt P03780); sequence looked up; chain GRLYSGNLAAFKAATNKLFQLDLAVIYDDWYDAYTRKDCIRLRIEDRSGNLIDTSTFYHHDEDVLFNMCTDWLNHMYDQLKDWK
B9: TRAP 26-496 (Plasmodium falciparum, UniProt P16893); sequence looked up; chain RDVQNNIVDEIKYSEEVCNDQVDLYLLMDCSGSIRRHNWVNHAVPLAMKLIQQLNLNDNAIHLYVNVFSNNAKEIIRLHSDASKNKEKALIIIRSLLSTNLPYGRTNLTDALLQVRKHLNDRINRENANQLVVILTDGIPDSIQDSLKESRKLSDRGVKIAVFGIGQGINVAFNRFLVGCHPSDGKCNLYADSAWENVKNVIGPFMKAVCVEVEKTASCGVWDEWSPCSVTCGKGTRSRKREILHEGCTSEIQEQCEEERCPPKWEPLDVPDEPEDDQPRPRGDNSSVQKPEENIIDNNPQEPSPNPEEGKDENPNGFDLDENPENPPNPDIPEQKPNIPEDSEKEVPSDVPKNPEDDREENFDIPKKPENKHDNQNNLPNDKSDRNIPYSPLPPKVLDNERKQSDPQSQDNNGNRHVPNSEDRETRPHGRNNENRSYNRKYNDTPKHPEREEHEKPDNNKKKGESDNKYK

`DMC1 (Homo sapiens, UniProt Q14565)` — result for binding: “binds” (T1, Psmc3ip/Mnd1 R64A/Y70A/Y71A (Mus musculus); pull-down).
`B1 (Fmnl3 555-954)`: “capping protein protection time” 413 s (ACTA1; elongation termination; formin 100 nM, with: capping protein 20 nM).
For `B2 (FBN1 179-489)`, binding read “binds” (FBLN5 42-448 (Homo sapiens, UniProt Q9UBX5); ELISA).
For `B3 (Nde1)`, the relative binding was 2.5 fold (CENPF 2122-2297 (Homo sapiens, UniProt P49454); pull-down; Cdk1/CyclinB phosphorylated; relative to: dephospho-Nde1, higher = more bound).
With `ACE2/ALB albumin fusion, FcRn non-binding x (Homo sapiens)` the elimination half-life was 3.1 h (FCGRT (Homo sapiens, UniProt P55899); serum sandwich ELISA; hFcRn+/+ hAlb+/+ transgenic mice; 4 mg/kg, in vivo, intravenous).
`rpoS del228-234 (Escherichia coli)` has an apparent Kd of 410 nM (rpoB/rpoC core RNA polymerase (Escherichia coli); pausing efficiency; adhE TEC).
The IC50 of `CD24/Siglec-10 blocking peptide, D-amino acids` is reported as 55600 nM (Cd274 (Mus musculus, UniProt Q9EP73); competition with ligand, flow cytometry; in cells).
`B4 (Fmnl3 555-954 M742A)` — result for “capping protein protection time”: 295 s (ACTA1; elongation termination; formin 100 nM, with: capping protein 20 nM).
Under “F-actin at steady state”, `sevA (Dictyostelium discoideum, UniProt P10733)` is recorded as 97.5% (actin G-actin, pyrene label (Oryctolagus cuniculus, UniProt P68135); actin polymerization, inhibitor; 50 nM, 14 h, capping, with: EGTA; relative to: control, higher = more F-actin).
`ACE2/pIgR VHH6 Fc fusion ACE2 , Fc at C-terminus (Homo sapiens)` gave a koff of 0.000139 s⁻¹ (PIGR (Homo sapiens, UniProt P01833); BLI).
The DIC1/DHC ratio of `B5 (Dync1i1)` is reported as 1.4 fold (Dync1h1 F580Y (Mus musculus, UniProt Q9JHU4); co-sedimentation; brain extract; with: taxol 20 µM, AMP-PNP 1 mM; relative to: wild type, higher = more dynein bound).
`B6 (HNRNPF 192-415)` — result for binding: “binds” (HNRNPH1 192-449 (Homo sapiens, UniProt P31943); trapping in hydrogel, hydrogel binding; pH 7.5, 4 °C, NaCl 200 mM).
The IC50 of `B7 (Fmnl3 555-954 R782A)` is reported as 2.5 nM (ACTA1; inhibition of filament elongation, inhibitor, pyrene-actin assay).
`B8 (Gp1.2 residues 2-end 2-85)` gave an IC50 of 66 nM (dgt 1-505 (Escherichia coli, UniProt P15723); dGTP hydrolysis inhibition, inhibitor; from kcat decrease, with: dGTP).
With `B9 (TRAP 26-496)` the half-life was greater than 3 min (ITGAV/ITGB3 ectodomain heterodimer 31-992 (Homo sapiens); SPR).
`kaiA (Synechococcus elongatus, UniProt Q79PF6)` — result for “rate constant k1”: 0.12 h⁻¹ (kaiC 1-519 E352Q (Synechococcus elongatus, UniProt Q79PF4); priming phosphorylation, SDS-PAGE; 0.2 mg/mL, 30 °C, with: KaiA 0.04 mg/mL; higher = faster).
For `BUD4 fragment (Saccharomyces cerevisiae)`, the beta-galactosidase activity was 502.93 ± 0.5 Miller units (IQG1 1-823 (Saccharomyces cerevisiae, UniProt Q12280); two-hybrid; higher = stronger interaction).
For `Importin-β/IBB-mEGFP IBB (Saccharomyces cerevisiae)`, the koff was greater than 0.1 s⁻¹ (NSP1 fragment (Saccharomyces cerevisiae); ellipsometry; apparent, two-component fit).

For quick reference, copied from above:
`B1 (Fmnl3 555-954)`: “capping protein protection time” 413 s (ACTA1; elongation termination; formin 100 nM, with: capping protein 20 nM).
For `B3 (Nde1)`, the relative binding was 2.5 fold (CENPF 2122-2297 (Homo sapiens, UniProt P49454); pull-down; Cdk1/CyclinB phosphorylated; relative to: dephospho-Nde1, higher = more bound).
